# Published values from different studies.
# “And” joins repeats or separate records; there may be more than shown.
# GRPR: Gastrin-releasing peptide receptor (GRPR, Homo sapiens, UniProt P30550)
# UniProt P30550, sequence (whole entry, looked up): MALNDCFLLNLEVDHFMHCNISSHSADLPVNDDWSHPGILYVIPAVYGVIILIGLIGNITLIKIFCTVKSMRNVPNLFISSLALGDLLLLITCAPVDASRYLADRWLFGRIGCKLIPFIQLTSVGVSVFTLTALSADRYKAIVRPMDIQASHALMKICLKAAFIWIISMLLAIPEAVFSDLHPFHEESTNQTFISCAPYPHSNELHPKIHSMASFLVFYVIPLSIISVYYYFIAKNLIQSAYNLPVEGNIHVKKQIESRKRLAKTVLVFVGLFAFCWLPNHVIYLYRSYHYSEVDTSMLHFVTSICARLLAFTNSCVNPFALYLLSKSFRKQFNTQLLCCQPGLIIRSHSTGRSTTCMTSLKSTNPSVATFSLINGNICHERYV
# SLC6A2: Sodium-dependent noradrenaline transporter (SLC6A2, Homo sapiens, UniProt P23975)
# UniProt P23975, sequence (whole entry, looked up): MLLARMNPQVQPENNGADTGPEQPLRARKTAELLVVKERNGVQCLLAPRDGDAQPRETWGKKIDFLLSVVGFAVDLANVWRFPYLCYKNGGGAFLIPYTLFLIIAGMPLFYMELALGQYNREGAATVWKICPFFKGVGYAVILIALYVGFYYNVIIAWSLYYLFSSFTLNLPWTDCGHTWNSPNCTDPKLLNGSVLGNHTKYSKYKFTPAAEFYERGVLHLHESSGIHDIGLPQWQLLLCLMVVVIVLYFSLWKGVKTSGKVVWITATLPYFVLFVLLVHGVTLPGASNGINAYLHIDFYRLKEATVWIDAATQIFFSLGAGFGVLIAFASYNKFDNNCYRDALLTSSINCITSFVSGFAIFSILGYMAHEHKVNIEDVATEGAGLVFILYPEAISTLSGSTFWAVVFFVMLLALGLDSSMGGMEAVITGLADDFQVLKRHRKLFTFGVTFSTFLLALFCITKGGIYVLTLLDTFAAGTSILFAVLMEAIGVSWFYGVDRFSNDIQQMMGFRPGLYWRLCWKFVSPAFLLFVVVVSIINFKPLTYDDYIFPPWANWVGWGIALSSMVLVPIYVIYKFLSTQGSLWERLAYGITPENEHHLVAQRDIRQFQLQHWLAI
# UniProt P00441, sequence (whole entry, looked up): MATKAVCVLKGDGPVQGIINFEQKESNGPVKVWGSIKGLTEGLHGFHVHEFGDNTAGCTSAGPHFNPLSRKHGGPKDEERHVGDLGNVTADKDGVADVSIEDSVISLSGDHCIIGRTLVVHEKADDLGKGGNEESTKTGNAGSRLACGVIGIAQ
# UniProt P62139, sequence (whole entry, looked up): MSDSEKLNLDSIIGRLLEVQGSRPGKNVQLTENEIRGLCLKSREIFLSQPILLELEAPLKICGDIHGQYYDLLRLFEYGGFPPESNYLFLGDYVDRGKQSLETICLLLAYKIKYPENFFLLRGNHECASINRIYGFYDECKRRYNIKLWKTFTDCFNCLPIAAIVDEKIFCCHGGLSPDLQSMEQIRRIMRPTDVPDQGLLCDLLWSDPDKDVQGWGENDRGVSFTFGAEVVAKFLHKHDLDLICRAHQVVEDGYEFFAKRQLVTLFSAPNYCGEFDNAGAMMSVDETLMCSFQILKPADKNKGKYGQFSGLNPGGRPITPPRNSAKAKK
# UniProt Q9HBA0, sequence (whole entry, looked up): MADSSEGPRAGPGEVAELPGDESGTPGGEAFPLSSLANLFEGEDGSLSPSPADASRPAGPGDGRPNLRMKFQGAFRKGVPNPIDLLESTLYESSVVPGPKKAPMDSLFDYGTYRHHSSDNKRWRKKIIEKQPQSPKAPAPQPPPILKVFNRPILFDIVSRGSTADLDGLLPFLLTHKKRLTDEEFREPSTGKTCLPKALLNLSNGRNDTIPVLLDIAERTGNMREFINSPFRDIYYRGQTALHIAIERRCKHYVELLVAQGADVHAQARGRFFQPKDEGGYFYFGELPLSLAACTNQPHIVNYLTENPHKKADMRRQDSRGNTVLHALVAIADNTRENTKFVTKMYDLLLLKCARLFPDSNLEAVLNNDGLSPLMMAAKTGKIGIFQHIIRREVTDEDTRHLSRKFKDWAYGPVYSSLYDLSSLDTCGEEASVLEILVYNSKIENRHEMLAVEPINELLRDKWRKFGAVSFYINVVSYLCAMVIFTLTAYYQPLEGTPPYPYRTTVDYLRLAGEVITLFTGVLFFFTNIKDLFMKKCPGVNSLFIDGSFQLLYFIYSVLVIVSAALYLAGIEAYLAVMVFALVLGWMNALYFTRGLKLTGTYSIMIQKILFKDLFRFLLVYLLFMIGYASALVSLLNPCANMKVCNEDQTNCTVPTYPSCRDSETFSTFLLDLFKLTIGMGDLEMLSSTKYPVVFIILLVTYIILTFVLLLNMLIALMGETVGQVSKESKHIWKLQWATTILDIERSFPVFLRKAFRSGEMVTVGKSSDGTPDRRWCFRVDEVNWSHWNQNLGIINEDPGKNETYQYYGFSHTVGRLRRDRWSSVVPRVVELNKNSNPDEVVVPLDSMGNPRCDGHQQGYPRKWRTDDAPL
# UniProt P19484, sequence (whole entry, looked up): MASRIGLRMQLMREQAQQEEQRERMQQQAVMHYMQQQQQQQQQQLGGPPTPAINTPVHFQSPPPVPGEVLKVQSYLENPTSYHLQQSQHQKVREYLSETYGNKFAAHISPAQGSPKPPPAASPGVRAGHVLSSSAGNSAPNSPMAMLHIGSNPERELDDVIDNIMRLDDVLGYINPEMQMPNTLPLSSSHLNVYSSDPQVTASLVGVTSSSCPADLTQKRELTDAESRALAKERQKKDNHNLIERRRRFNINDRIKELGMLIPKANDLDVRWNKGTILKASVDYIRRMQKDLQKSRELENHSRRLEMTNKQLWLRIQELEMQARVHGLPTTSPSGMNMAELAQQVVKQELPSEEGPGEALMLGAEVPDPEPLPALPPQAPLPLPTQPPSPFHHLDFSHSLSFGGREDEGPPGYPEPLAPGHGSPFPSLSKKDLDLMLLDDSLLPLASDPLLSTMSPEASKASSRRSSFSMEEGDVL
# UniProt Q13936, sequence (whole entry, looked up): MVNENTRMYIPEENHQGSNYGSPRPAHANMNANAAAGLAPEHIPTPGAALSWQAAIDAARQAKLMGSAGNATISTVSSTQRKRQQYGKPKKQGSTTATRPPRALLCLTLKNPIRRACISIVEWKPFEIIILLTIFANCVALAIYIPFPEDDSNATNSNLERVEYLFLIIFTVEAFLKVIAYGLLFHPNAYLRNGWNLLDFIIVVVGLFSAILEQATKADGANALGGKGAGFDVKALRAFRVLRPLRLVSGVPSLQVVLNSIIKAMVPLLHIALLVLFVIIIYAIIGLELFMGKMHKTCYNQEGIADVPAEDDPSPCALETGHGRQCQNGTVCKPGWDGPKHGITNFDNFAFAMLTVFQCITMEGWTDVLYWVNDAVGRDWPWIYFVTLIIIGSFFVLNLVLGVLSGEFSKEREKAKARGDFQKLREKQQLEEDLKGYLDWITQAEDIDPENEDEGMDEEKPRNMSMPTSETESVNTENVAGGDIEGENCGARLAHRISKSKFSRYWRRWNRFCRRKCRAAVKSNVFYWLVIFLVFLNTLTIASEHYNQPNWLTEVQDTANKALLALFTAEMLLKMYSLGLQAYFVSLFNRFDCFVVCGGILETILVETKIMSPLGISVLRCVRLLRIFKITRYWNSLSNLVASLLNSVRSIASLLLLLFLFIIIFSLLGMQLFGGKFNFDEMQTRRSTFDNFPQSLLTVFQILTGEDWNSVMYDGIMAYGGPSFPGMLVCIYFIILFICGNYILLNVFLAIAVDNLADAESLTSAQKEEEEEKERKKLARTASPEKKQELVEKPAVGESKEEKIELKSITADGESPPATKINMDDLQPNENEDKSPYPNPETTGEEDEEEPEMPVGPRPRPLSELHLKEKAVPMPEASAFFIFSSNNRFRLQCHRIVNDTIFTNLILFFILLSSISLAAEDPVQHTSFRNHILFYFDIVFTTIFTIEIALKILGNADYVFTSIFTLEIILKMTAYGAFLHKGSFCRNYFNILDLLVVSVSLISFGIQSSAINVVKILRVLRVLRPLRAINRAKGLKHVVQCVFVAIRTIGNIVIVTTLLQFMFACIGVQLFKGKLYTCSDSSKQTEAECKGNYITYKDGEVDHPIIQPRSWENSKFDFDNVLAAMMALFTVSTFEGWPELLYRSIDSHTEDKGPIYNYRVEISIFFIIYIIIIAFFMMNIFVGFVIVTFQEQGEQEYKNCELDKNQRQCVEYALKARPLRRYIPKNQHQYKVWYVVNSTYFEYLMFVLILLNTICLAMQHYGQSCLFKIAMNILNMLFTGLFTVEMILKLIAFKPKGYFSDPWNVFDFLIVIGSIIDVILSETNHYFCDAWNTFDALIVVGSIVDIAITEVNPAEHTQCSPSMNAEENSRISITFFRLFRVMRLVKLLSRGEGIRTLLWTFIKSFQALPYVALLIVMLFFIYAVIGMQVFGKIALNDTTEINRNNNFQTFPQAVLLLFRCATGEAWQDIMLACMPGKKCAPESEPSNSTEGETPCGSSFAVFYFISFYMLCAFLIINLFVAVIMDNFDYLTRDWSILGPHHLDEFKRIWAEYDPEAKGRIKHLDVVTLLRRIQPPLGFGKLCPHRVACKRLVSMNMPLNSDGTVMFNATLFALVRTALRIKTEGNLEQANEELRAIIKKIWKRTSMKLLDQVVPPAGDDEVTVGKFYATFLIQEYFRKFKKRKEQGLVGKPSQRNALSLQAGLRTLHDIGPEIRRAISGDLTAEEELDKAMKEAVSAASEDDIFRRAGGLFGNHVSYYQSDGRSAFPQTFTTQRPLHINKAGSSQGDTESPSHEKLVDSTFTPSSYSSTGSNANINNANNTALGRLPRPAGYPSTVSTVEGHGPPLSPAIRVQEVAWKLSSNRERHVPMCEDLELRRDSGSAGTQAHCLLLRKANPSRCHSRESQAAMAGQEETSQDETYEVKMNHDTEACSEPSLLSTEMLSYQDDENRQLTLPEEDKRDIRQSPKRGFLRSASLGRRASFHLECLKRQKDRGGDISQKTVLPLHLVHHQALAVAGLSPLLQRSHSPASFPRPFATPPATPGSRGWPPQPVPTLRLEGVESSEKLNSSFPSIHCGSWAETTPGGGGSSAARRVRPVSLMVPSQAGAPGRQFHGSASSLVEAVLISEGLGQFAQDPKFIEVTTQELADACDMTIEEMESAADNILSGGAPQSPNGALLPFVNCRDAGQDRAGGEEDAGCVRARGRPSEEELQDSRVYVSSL
Structure (SMILES),target,assay,test system,conditions,IC50
CSCC[C@H](NC(=O)[C@H](CC(C)C)NC(=O)[C@H](Cc1c[nH]cn1)NC(=O)CNC(=O)[C@@H](NC(=O)[C@H](C)NC(=O)[C@H](Cc1c[nH]c2ccccc12)NC(=O)[C@H](CCC(N)=O)NC(=O)[C@H](CC(N)=O)NC(=O)[C@H](CC(=O)O)NC(=O)[C@H](CCCNC(=N)N)NC(=O)CNC(=O)CNC(=O)CN)C(C)C)C(N)=O,GRPR,"ligand displacement, radioligand",,,46.7 nM
O=C(NCc1ccc2c(c1)OCO2)c1ccnc(C(=O)NCc2ccc3c(c2)OCO3)c1,"Collagenase 3 (MMP13, Homo sapiens, UniProt P45452)","enzyme activity, inhibitor",,,77 nM and 140 nM
O=C(NCCCN1CCC(Cc2ccccc2)CC1)c1ccc2ccccc2c1,SLC6A2,"transporter uptake, inhibitor, radiometric",,,150 to 760 nM
CC(C)C[C@H]1CN[C@H](C(N)=O)CSSC[C@@H](N)C(=O)N[C@@H](CCC(N)=O)C(=O)N[C@@H](Cc2c[nH]c3ccccc23)C(=O)N[C@@H](C)C(=O)N[C@@H](C(C)C)C(=O)N[C@H](C)C(=O)N[C@@H](Cc2c[nH]cn2)C(=O)N1,GRPR,"inositol phosphate generation, antagonist",HuTu80,with: GRP,> 10000 nM
CN1C[C@@H](c2c[nH]c3cc(Br)ccc23)NC[C@@H]1c1c[nH]c2ccccc12,"Serine/threonine-protein phosphatase PP1-alpha catalytic subunit (PPP1CA, Oryctolagus cuniculus, UniProt P62139)","enzyme activity, inhibitor, fluorescence",,,~10000 nM
CC1=NN(c2ccc(C)c(C)c2)C(=O)/C1=N\Nc1cccc(-c2cccc(C(=O)NCCOCCOCCNC(=O)CCCC[C@@H]3SC[C@@H]4NC(=O)N[C@@H]43)c2)c1O,"Transcription factor EB, bHLH-LZ domain (TFEB, Homo sapiens, UniProt P19484)","CLEAR DNA binding, fluorescence anisotropy",,with: FAM-CLEAR DNA 5 nM,396 nM
CN(C)c1ccc2c(c1)C(=O)N(C(C(=O)O)C(C)(C)S)C2=O (centres unmarked),"Metallo-beta-lactamase VIM-2 (VIM-2, Escherichia coli, UniProt Q5U7L7)","enzyme activity, inhibitor",,pH 7,> 30000 nM
C[C@@H](OC(=O)c1cccc(S(=O)(=O)Nc2ccc3c(c2)OCO3)c1)C(=O)c1c[nH]c2ccccc12,"Voltage-dependent L-type calcium channel subunit alpha-1C (CACNA1C, Homo sapiens, UniProt Q13936)","calcium signal, fluorescence",,,15500 nM
N=C(N)NCCCC(N)C(=O)NCC(=O)NC(CCCCNC(=N)NCCCSCC1OC(n2cnc3c(N)ncnc32)C(O)C1O)C(N)=O (centres unmarked),"Histone-lysine N-methyltransferase SETD7 (SETD7, Homo sapiens, UniProt Q8WTS6)","enzyme activity, inhibitor, fluorescence",,,> 100000 nM
N/C(S)=N/N=C/c1ccccn1,"Superoxide dismutase [Cu-Zn] (SOD1, Homo sapiens, UniProt P00441)","enzyme activity, inhibitor",HeLa,24 h,12300 nM
C#CC[C@H](NC(=O)c1ccc(C(=O)c2ccccc2)cc1)C(=O)NCCCCCC(=O)N[C@@H](CCCCNC(=O)CSCCNC(=O)CCNC(=O)[C@H](O)C(C)(C)COP(=O)(O)OP(=O)(O)OC[C@H]1O[C@@H](n2cnc3c(N)ncnc32)[C@H](O)[C@@H]1OP(=O)(O)O)C(N)=O,"Histone acetyltransferase p300 (EP300, Homo sapiens, UniProt Q09472)","enzyme activity, inhibitor",,,26.7 nM
CNCc1c(OCc2ccc(F)cc2)ccc2ccccc12,SLC6A2,"transporter uptake, inhibitor, radiometric",,,2090 nM
CC(C)c1ccc2nc3ccc(C(=O)NCCN4CCN(c5ccccc5)CC4)cn3c(=O)c2c1,"Transient receptor potential cation channel subfamily V member 4 (TRPV4, Homo sapiens, UniProt Q9HBA0)","calcium signal, antagonist",,,363 nM
Cc1cc2c(NC(=O)N[C@@H]3CC(C)(C)Oc4cc(C(F)(F)F)ccc43)c(C)ccc2cn1,"Transient receptor potential cation channel subfamily V member 1 (TRPV1, Homo sapiens, UniProt Q8NER1)","heat-activated current, antagonist",,with: heat 48 °C,20 nM

# Some of these lines once more:
Structure (SMILES),target,assay,test system,conditions,IC50
C[C@@H](OC(=O)c1cccc(S(=O)(=O)Nc2ccc3c(c2)OCO3)c1)C(=O)c1c[nH]c2ccccc12,"Voltage-dependent L-type calcium channel subunit alpha-1C (CACNA1C, Homo sapiens, UniProt Q13936)","calcium signal, fluorescence",,,15500 nM
Cc1cc2c(NC(=O)N[C@@H]3CC(C)(C)Oc4cc(C(F)(F)F)ccc43)c(C)ccc2cn1,"Transient receptor potential cation channel subfamily V member 1 (TRPV1, Homo sapiens, UniProt Q8NER1)","heat-activated current, antagonist",,with: heat 48 °C,20 nM
